Experimental data gathered from unrelated publications.
Protocols differ between the studies behind these lines. ± marks the error that the study gave.

| Compound | test | test system | conditions | tissue uptake [%ID/g] |
| --- | --- | --- | --- | --- |
| COc1cc2ccnc(Cc3ccc(O[11CH3])c(OC)c3)c2cc1OC | – | Sprague-Dawley rat, brain | intravenous, 30 min | 0.041 ± 0.007 |
| N=C(N)NCc1ccc(C(=O)NCCCC[C@H](NC(=O)N[C@@H](CCC(=O)O)C(=O)O)C(=O)O)cc1[211At] | – | SCID mouse, PC-3 xenografts, muscle | 14 h | 0.1 ± 0.02 |
| CCCC[C@H](NC(=O)CCOCCOCCNC(=O)CN1CCN(CC(=O)O)CCN(CC(=O)O)CCN(CC(=O)O)CC1)C(=O)N[C@H]1CC(=O)NCCCC[C@@H](C(N)=O)NC(=O)[C@H](Cc2c[nH]c3ccccc23)NC(=O)[C@H](CCCNC(=N)N)NC(=O)[C@@H](Cc2ccccc2)NC(=O)[C@H](Cc2c[nH]cn2)NC1=O [gallium-68 labelled] | – | C57BL/6J mice male B16-F10 tumour, spleen | 1 h post injection, unblocked | 0.3 ± 0.1 |
| CCNc1cc2[o+]c3cc(NCC)c(C)cc3c(-c3ccccc3C(=O)OCCOCC[18F])c2cc1C | – | rat, blood | 120 min | 0.06 ± 0.01 |
| N=C(N)NCc1ccc(C(=O)NCCCC[C@H](NC(=O)CCCCCCC(=O)NCCCC[C@H](NC(=O)N[C@@H](CCC(=O)O)C(=O)O)C(=O)O)C(=O)O)cc1[211At] | – | SCID mouse, PC-3 xenografts, spleen | 2 h | 4.31 ± 1.96 |
| CN[C@](C)(C[18F])C(=O)O | – | SCID mouse MDA-MB-468 xenograft, spleen | 60 min, post injection | 7.3 ± 1.1 |
| COc1cc(C(=O)NCCOCCOCCOCCNC(=O)c2ccc([18F])nc2)ccc1NC(=O)C1NC(CC(C)(C)C)C(C#N)(c2ccc(Cl)cc2F)C1c1cccc(Cl)c1F (stereo not drawn) | – | athymic male mice, HepG2 xenograft, small intestine | 4 h | 1.89 ± 0.79 |
| NC(=O)[C@@H](CCCCNC(=O)CNC(=O)CCC(=O)NCCc1c[nH]cn1)NC(=O)[C@@H](Cc1ccc(O)cc1)NC(=O)[C@@H](CCCCNC(=O)CNC(=O)CCC(=O)NCCc1c[nH]cn1)NC(=O)Cc1ccc(CN2CCN(CC(=O)O)CCN(CC(=O)O)CC2)cc1 [fluorine-18 labelled] | – | tumour-bearing nude mice, kidney | intravenous, 1.04 MBq, 1 h, no pretargeting | 3.33 ± 0.56 |
| C=Cc1cc(O)cc2nc(-c3ccc(O)c([76Br])c3)oc12 | – | female C57BL/6 mouse, liver | 6 h, high dose | 0.14 ± 0.02 |
| COc1ccc(C)cc1NC(=O)OC1CC2CCCC(C1)N2Cc1ccc(CC[18F])cc1 (stereo not drawn) | – | BALB/c mice, EMT6 tumour, muscle | 2 h | 1.62 ± 0.27 |
| C[C@]12CC[C@H](OCC[18F])C[C@H]1CC[C@@H]1[C@@H]2CC[C@]2(C)[C@@H](c3ccc(=O)oc3)CC[C@]12O | micro-PET | BALB/c nude mice, SMMC-7721 xenograft, bladder | intravenous, 7.4 MBq, 120 min | 33.1 ± 5.81 |
| O=C(c1ccc(F)cc1)C1CCN(C2Cc3c(cccc3OCC[18F])CC2O)CC1 (single isomer, unassigned; (-)) | – | Sprague-Dawley rat, male, pancreas | intravenous, dose not given, 120 min | 0.819 ± 0.367 |
| COc1cc2ncnc(Oc3cccc(N[11C](=O)Nc4cc(C(C)(C)C(F)(F)F)on4)c3)c2cc1OC | – | Balb/c nude mouse, female, A375 melanoma xenograft, small intestine | 6.6 MBq, 30 min | 33.8 ± 1.23 |
| N=C(N)NCc1ccc(C(=O)NCCCC[C@H](NC(=O)N[C@@H](CCC(=O)O)C(=O)O)C(=O)O)cc1[131I] | – | SCID mouse, PC-3 xenografts, stomach | 14 h | 0.26 ± 0.38 |
| O=C(O)CC[C@H](NC(=O)O[C@@H](CCCCNC(=O)c1ccc([18F])cc1)C(=O)O)C(=O)O | – | mouse, PC-3 PIP/flu xenografts, heart | 90 min | 0.11 ± 0.02 |

Some of these lines once more:
| Compound | test | test system | conditions | tissue uptake [%ID/g] |
| --- | --- | --- | --- | --- |
| C[C@]12CC[C@H](OCC[18F])C[C@H]1CC[C@@H]1[C@@H]2CC[C@]2(C)[C@@H](c3ccc(=O)oc3)CC[C@]12O | micro-PET | BALB/c nude mice, SMMC-7721 xenograft, bladder | intravenous, 7.4 MBq, 120 min | 33.1 ± 5.81 |
